Experimental data from different studies.
Numbered parts are unrelated; each lists some results of a single study. Changes are numbered by the printed parent chain.

Sample 1 — target: CCNE1, cyclin fold, Cln2 fusion (human); technique: yeast growth competition, sequencing; matrix: yeast; notes: weak parent motif; relative to: not given; reading: higher = stronger binding
Starting sequence: WEE1 docking peptide (human); HKTFRKLRLFDTP
Variant	normalised enrichment score
HGTFRKLRLFDTP [K2G]	1.05
HKTFNKLRLFDTP [R5N]	-7.1
HKTFRKLRLFDTR [P13R]	-0.523
HKTFRKLRLFWTP [D11W]	1.15
HKTFRKGRLFDTP [L7G]	0.842
HKTYRKLRLFDTP [F4Y]	0.586
HKTFRKLRLFDNP [T12N]	1.2
HKAFRKLRLFDTP [T3A]	-0.393
HKTFRKLRLIDTP [F10I]	0.709
HKTFEKLRLFDTP [R5E]	0.559
HKCFRKLRLFDTP [T3C]	0.322
HKTFRKLRLFNTP [D11N]	-0.112
HKTFRKLWLFDTP [R8W]	2.1
HKTFRRLRLFDTP [K6R]	0.849
HKTFRKLNLFDTP [R8N]	0.177
HKTFRKLRLQDTP [F10Q]	-0.626

Sample 2 — technique: DHFR PCA, deep sequencing; matrix: yeast; with: (+)-ABA 0 µM; relative to: wild-type fitted maximum; reading: higher = stronger binding
Target: ABI1, truncated, D143A, DHFR fusion (Arabidopsis thaliana)
Notes: methotrexate growth selection, single substitutions
Starting sequence: PYL1, truncated, DHFR fusion (Arabidopsis thaliana); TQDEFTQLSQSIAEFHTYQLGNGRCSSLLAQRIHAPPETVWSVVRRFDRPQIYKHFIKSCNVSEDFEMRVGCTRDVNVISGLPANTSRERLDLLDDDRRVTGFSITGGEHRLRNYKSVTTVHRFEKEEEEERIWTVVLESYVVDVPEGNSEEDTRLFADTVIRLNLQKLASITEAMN
Variant	relative binding score [%]
W134G	12.3
Q31I	3.4
G21E	34.8
E109W	-7.2
S59N	11.2
A30C	5.92
I33V	4.99
Q19W	1.52
F103R	-0.978
S87I	48
E38D	22.4
S26R	2.11
T135L	-9.56
H55M	17.8
G81S	37.5
A35Y	-1.17

Sample 3 — technique: protein-binding microarray; form: double-stranded DNA, one strand shown; matrix: in vitro; concentration: 250 nM; notes: 60-bp whole probe; with: salmon DNA 0.4 mg/ml; relative to: random background probes; reading: higher = stronger binding; constant ends, left off below: GCCTAGCAC … GTCTTGATTCGCTTGACGCTGCTG
Target: Interferon regulatory factor 7, full length, phosphomimetic (IRF7, Homo sapiens, UniProt Q92985, residues 1-503, S101K/S471D/S472D/S475D/S476D/S477D/S483D/S484D/S487D)
Construct (chain): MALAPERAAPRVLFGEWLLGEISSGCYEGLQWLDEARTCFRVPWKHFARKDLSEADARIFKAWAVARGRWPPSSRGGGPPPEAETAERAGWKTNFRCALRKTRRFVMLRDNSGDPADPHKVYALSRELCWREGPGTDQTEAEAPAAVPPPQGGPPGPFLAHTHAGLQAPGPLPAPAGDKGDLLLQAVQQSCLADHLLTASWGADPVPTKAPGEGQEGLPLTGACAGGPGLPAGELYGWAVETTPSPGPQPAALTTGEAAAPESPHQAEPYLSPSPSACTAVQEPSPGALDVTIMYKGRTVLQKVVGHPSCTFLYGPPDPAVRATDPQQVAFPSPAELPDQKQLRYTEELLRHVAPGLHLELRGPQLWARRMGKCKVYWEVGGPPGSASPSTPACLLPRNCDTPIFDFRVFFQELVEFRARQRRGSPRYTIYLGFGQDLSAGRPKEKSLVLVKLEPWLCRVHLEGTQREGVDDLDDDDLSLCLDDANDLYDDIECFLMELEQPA
Oligonucleotide	log fluorescence [z-score]
TCAATTCTCTTTTCACTACTGTGCTAG	1.63
TATAATTTTGTCATCTATAAGTGCTAG	0.365
GACGATATCCTTATCCTGACGTGCTAG	-0.177
CTCTACCTCGTCATAGTAACGTGCTAG	0.551
CTTGCTTCCCAATTCTCTTTGTGCTAG	1.36
GACGGTATCGGCTTCGGGACGTGCTAG	-0.0563
TTACGACTGGGACTGGGTTAGTGCTAG	-0.297
TTAGGTATCGACTCTCGGTTAGTGCTA	1.52
TCAGATATAAATGTAACACTGTGCTAG	0.45
GAGTTTCTATTTTCTGAATGGTGCTAG	10.1
TTAGGACTGGGACTGGGTCAGTGCTAG	-0.526
TTAGGTATACTACTGCTTTAGTGCTAG	-0.0519
TTAGTACTGGGGTATCGGTTAGTGCTA	0.408

Further values, each from its own experiment
Substance	target	test	system	setting	how to read	quantity	value
PhoQ, residues 284 288 289 292 302 303 TASMAF	PhoP, residues 12 14 15 18 19 GQALL (Escherichia coli, UniProt P23836)	Sort-seq, item: YFP reporter	E. coli	PhoQ-PhoP variant library, with: 10 µM Mg2+	relative to: high Mg2+ state, higher = stronger signaling	fold induction	19.8

Excerpt of the above (sample 2):
Variant	relative binding score [%]
I33V	4.99
Q19W	1.52
